Measurements pooled from the literature.
Each line is one published result; not all experiments were run side by side. Values joined by “and” are separate records of one study, mostly repeats; a detail may differ. ± marks the error that the study gave.

Compound | test | system | setting | tissue uptake
Cc1cc(C)n(CCN(CCN)CCCCCCNC(=O)[C@@H](N)Cc2c[nH]c3ccccc23)n1.[99Tc+].[C-]#[O+].[C-]#[O+].[C-]#[O+] | – | BALB/c nude mice, A549 xenograft, kidney | intravenous, 15 min | 12.9 ± 1.39 %IA/g
CC(C)C[C@H](NC(=O)[C@@H](CCCCNC(=O)[C@@H](Cc1ccccc1)NC(=O)CCCCCCCNC(=O)CN1CCN(CC(=O)O)CCN(CC(=O)O)CCN(CC(=O)O)CC1)NC(=O)[C@H](Cc1ccc(O)cc1)NC(=O)[C@H](CO)NC(=O)[C@H](Cc1c[nH]c2ccccc12)NC(=O)[C@H](Cc1c[nH]cn1)NC(=O)[C@@H]1CCC(=O)N1)C(=O)N[C@@H](CCCNC(=N)N)C(=O)N1CCC[C@H]1C(=O)NCC(N)=O [indium-111 labelled] | biodistribution | male athymic nude mice, DU-145 prostate cancer xenograft, muscle | intravenous, 0.037 MBq, 4 h post-injection | 0.15 ± 0.07 %ID/g
CCCC[C@H](NC(=O)CNC(=O)CNC(=O)[C@H](CCCCNC(=O)[C@H](CC(=O)O)NC(=O)C(C)c1ccc(CC(C)C)cc1)NC(=O)CN1CCN(CC(=O)O)CCN(CC(=O)O)CCN(CC(=O)O)CC1)C(=O)N[C@H]1CC(=O)NCCCC[C@@H](C(N)=O)NC(=O)[C@H](Cc2c[nH]c3ccccc23)NC(=O)[C@H](CCCNC(=N)N)NC(=O)[C@@H](Cc2ccccc2)NC(=O)[C@H](Cc2c[nH]cn2)NC1=O (stereo partly drawn) [lutetium-177 labelled] | – | C57 mice, tumour-bearing, pancreas | intravenous, 0.037 MBq, 4 h | 0.17 ± 0.07 %ID/g
CCCC[C@H](NC(=O)CCCCCCCNC(=O)CN1CCN(CC(=O)O)CCN(CC(=O)O)CC1)C(=O)N[C@H]1CC(=O)NCCCC[C@@H](C(N)=O)NC(=O)[C@H](Cc2c[nH]c3ccccc23)NC(=O)[C@H](CCCNC(=N)N)NC(=O)[C@@H](Cc2ccccc2)NC(=O)[C@H](Cc2c[nH]cn2)NC1=O [fluorine-18 labelled] | – | C57 mice, B16/F10 melanoma, blood | intravenous, 1 h, added: NDP-MSH 10 µg | 0.32 ± 0.14 %ID/g
O=C(NCC1OC2CCC=CCCC2O1)c1ccc([18F])nc1 (stereo not drawn) | – | healthy female BALB/c nude mice, bone | intravenous, 7.4 MBq per mouse, 10 min | 1.4 ± 0.5 %ID/g
O=C([O-])CN1CCN(CC(=O)[O-])CCN(CC(=O)NC[C@H]2CC[C@H](C(=O)N[C@H](Cc3cnc4ccccc4c3)C(=O)NCCCC[C@H](NC(=O)N[C@@H](CCC(=O)O)C(=O)O)C(=O)O)CC2)CCN(CC(=O)[O-])CC1.[64Cu+2] | ex vivo gamma counting | 22Rv1 tumour-bearing mice, brain | intravenous, 0.74 MBq, 24 h post-injection | 0.66 %ID/g
N#C[C@@H]1CCCN1C(=O)CNC(=O)c1ccnc2ccc(OCCCN3CCN(C(=O)CCc4ccc(O)c(CN5CCN6CC(=O)[O][Al-]([18F])([O]C(=O)C5)[O]c5ccc(CCC(=O)N7CCN(CCCOc8ccc9nccc(C(=O)NCC(=O)N%10CCC[C@H]%10C#N)c9c8)CC7)cc5C6)c4)CC3)cc12 (stereo partly drawn) | – | BALB/c nude mice, U-87 MG xenograft, kidney | 1 h | 4.21 ± 0.77 %ID/g
CCCC[C@H](NC(=O)COCCOCCNC(=O)CN1CCN(CC(=O)O)CCN(CC(=O)O)CC1)C(=O)N[C@H]1CC(=O)NCCCC[C@@H](C(N)=O)NC(=O)[C@H](Cc2c[nH]c3ccccc23)NC(=O)[C@H](CCCNC(=N)N)NC(=O)[C@@H](Cc2ccccc2)NC(=O)[C@H](Cc2c[nH]cn2)NC1=O [fluorine-18 labelled] | – | C57 mice B16/F10 melanoma, intestines | intravenous, 1 h, added: NDP-MSH 10 µg blockade | 1.4 ± 0.17 %ID
COc1ccc2c(c1)C(C)(C)C(/C=C/C1=C(Oc3ccc(C(=O)NCCCCOc4cc(CN(Cc5ccccn5)Cc5ccccn5)cc(CN(Cc5ccccn5)Cc5ccccn5)c4)cc3)C(=C/C=C3/N(CCCCS(=O)(=O)[O-])c4ccc(OC)cc4C3(C)C)CCC1)=[N+]2CCCCS(=O)(=O)[O-].O=[N+]([O-])[O-].O=[N+]([O-])[O-].[99Tc+].[C-]#[O+].[C-]#[O+].[C-]#[O+].[Zn+2] | – | healthy BALB/c mice, blood | 12 h | 0.69 %ID/g and 0.46 %ID/g and 0.88 %ID/g and 0.45 %ID/g

Excerpt of the above:
Compound | test | system | setting | tissue uptake
CCCC[C@H](NC(=O)CNC(=O)CNC(=O)[C@H](CCCCNC(=O)[C@H](CC(=O)O)NC(=O)C(C)c1ccc(CC(C)C)cc1)NC(=O)CN1CCN(CC(=O)O)CCN(CC(=O)O)CCN(CC(=O)O)CC1)C(=O)N[C@H]1CC(=O)NCCCC[C@@H](C(N)=O)NC(=O)[C@H](Cc2c[nH]c3ccccc23)NC(=O)[C@H](CCCNC(=N)N)NC(=O)[C@@H](Cc2ccccc2)NC(=O)[C@H](Cc2c[nH]cn2)NC1=O (stereo partly drawn) [lutetium-177 labelled] | – | C57 mice, tumour-bearing, pancreas | intravenous, 0.037 MBq, 4 h | 0.17 ± 0.07 %ID/g
